Measurements from different studies.
Every numbered part comes from another study and shows a few of its results, in no order. Changes are numbered by the printed parent chain.

Study 1 — method: DHFR PCA, deep sequencing; sample: yeast; together with: (+)-ABA 0.39 µM; relative to: wild-type fitted maximum; reading: higher = stronger binding
Target: ABI1, truncated, D143A, DHFR fusion (Arabidopsis thaliana)
Setting: methotrexate growth selection, single substitutions
Parent: PYL1, truncated, DHFR fusion (Arabidopsis thaliana); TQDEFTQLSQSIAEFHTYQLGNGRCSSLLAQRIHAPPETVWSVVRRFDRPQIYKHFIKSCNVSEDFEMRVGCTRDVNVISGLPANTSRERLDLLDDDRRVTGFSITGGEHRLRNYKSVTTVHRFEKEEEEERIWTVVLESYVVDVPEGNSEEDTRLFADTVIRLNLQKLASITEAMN; partner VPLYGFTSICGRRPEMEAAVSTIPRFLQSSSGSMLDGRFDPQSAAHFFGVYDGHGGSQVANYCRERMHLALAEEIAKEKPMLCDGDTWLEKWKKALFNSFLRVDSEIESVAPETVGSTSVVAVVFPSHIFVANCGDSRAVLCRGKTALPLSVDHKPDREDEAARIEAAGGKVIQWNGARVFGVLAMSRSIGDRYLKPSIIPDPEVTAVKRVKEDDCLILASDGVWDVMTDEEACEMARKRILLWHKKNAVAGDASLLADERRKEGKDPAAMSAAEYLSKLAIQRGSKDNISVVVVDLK
Change	relative binding score
C25I	51.6%
L28I	65.3%
Y53I	0.929%
L112Y	-5.56%
S26G	33.4%
E152G	4.66%
E4R	6.31%
I57F	-5.27%
T39V	62.5%
R163E	9.57%
F103E	-13.9%
I133A	55.8%

Study 2 — method: protein binding microarray; form: double-stranded DNA, one strand shown; sample: in vitro; tested at: not given; relative to: not given; reading: higher = stronger binding
Target: Histone acetyltransferase KAT6A, winged helix 2, GST fusion (KAT6A, Homo sapiens, UniProt Q92794, residues 85-181)
Setting: 8-mer, flanks averaged, mean of 2 arrays, mostly near background
Target sequence (chain): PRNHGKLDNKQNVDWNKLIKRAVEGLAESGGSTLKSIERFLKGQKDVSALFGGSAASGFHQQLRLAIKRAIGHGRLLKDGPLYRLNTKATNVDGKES
Strand	E-score
CTACCGCA	0.0137
AGAGTTAA	-0.161
CCGTGTCG	0.0291
AGCATTTG	-0.0567
ACTGTTGC	-0.0423
GGTGCACA	-0.14
GCTGCCAA	-0.00741
AAGCAATA	-0.112
TGGGAACA	-0.0315
CCACTACG	0.129
CAGTAGGG	-0.0912
ACCCTGCG	0.193
TAGCCTGA	-0.113
GGGTGTAA	0.065
CTCTGGCC	0.107
CCACAATA	-0.0964
TGAAGTCA	-0.158
AAATTGAC	0.0829
CAACGAAC	0.0567
AATAACGA	-0.0826
CTTCCTAC	-0.0918
CAGAGTGG	0.0359
AATTTGAG	-0.0305
AAGGCAGC	0.00152
ACGTCGGA	-0.0665

Study 3 — method: aptamer microarray, sandwich; form: DNA with 2'F-ANA; sample: in vitro; tested at: 200 nM; together with: Cy3 exosite-II aptamer, 400 nM; reading: higher = stronger binding; strand: GGTTGGTGTGGTTGG
Target: Prothrombin, mature alpha-thrombin (F2, Homo sapiens, UniProt P00734)
Setting: whole 15-mer aptamer, many near background
Modification	mean fluorescence intensity [a.u.]
2'F-ANA at 2 6 7 9 11 13 14	99
2'F-ANA at 2 4 7 8 9 13	234
2'F-ANA at 1 2 3 4 6 9 11 12 14	58.9
2'F-ANA at 1 3 5 6 7 11 13 15	54.1
2'F-ANA at 1 3 4 6 7 8 9 11 14 15	69.1
2'F-ANA at 2 3 4 6 7 8 9 11 12 13 14 15	212
2'F-ANA at 1 2 3 5 7 9 14	73.6
2'F-ANA at 2 3 4 5 7 8 9 11 12 13 14	80.2
2'F-ANA at 2 3 5 8 9 11 12 15	172
2'F-ANA at 4 6 7 11 12 14	93.5
2'F-ANA at 1 2 4 5 6 7 9 12 13 14	50.6
2'F-ANA at 1 3 4 5 8 9 13 15	50.8
2'F-ANA at 4 7 8 9 11 12 14	123
2'F-ANA at 1 3 9 14 15	98.4
2'F-ANA at 1 2 4 7 9 11 15	97.6

Study 4 — method: protein-binding microarray; form: double-stranded DNA, one strand shown; sample: in vitro; tested at: 250 nM; setting: 60-bp whole probe; together with: salmon DNA 0.4 mg/ml; relative to: random background probes; reading: higher = stronger binding; all sequences stand within: GCCTAGCAC … GTCTTGATTCGCTTGACGCTGCTG
Target: Interferon regulatory factor 7, full length, phosphomimetic (IRF7, Homo sapiens, UniProt Q92985, residues 1-503, S101K/S471D/S472D/S475D/S476D/S477D/S483D/S484D/S487D)
Sequence of UniProt Q92985 (whole entry, unmodified, looked up): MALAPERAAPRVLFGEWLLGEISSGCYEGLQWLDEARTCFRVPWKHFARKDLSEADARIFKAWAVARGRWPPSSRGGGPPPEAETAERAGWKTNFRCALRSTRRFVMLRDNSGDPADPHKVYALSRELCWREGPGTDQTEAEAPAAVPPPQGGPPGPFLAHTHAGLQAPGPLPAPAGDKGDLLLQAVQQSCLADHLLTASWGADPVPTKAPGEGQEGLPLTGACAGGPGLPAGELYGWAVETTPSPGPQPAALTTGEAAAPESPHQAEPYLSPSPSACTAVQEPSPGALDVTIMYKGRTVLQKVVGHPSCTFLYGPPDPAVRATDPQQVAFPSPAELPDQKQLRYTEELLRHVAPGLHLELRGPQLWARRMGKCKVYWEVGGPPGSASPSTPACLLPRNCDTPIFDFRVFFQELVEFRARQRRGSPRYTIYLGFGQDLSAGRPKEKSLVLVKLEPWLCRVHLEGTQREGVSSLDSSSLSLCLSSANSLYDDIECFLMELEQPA
Strand	log fluorescence
TTGGGACTGCTACTGCTTTAGTGCTAG	-0.785 z-score
GGCTGTTTGGTTCTGATCCTGTGCTAG	-0.393 z-score
AGAAGATAAGCTGCAAGAAAGTGCTAG	-0.882 z-score
GGTCCTCTGGGCTGTTTGGCCGTGCTA	-0.567 z-score
TTAGAGTTCAGTCTCGATTAGTGCTAG	0.84 z-score
TCATTTTGGTTTCTGGTACTGTGCTAG	2.49 z-score
TTAGATTTCTGTCTCGATTAGTGCTAG	0.935 z-score
ACAAGTTTTTATTTTCTGAAGTGCTAG	1.32 z-score
TCAAATGTCCTCCTCTCACTGTGCTAG	0.242 z-score
CCTCATCTTCCTCTGCCACAGTGCTAG	0.902 z-score
GACGGACTTCTTTTCCTGACGTGCTAG	0.381 z-score
TTTGGACTGCTACTGCTTTAGTGCTAG	-0.811 z-score
TTAGATCTCAGACTGGCTTAGTGCTAG	-0.0584 z-score
GAGGGTCTCCTTTTCCTGACGTGCTAG	0.719 z-score
GACGAACTGGGTACTGGAGACGTGCTA	-0.802 z-score
GACGATTTCCGTTCCGAGACGTGCTAG	1.3 z-score
GACGAACCGAGTCTCGAGACGTGCTAG	1.54 z-score
TTAAGTATCGACTATCGGTTAGTGCTA	0.453 z-score
GACGGTATCGGGTTTCGGGGCGTGCTA	2.09 z-score

Study 5 — target: CCNB2, cyclin fold, Cln2 fusion (human); method: yeast growth competition, sequencing; sample: yeast; setting: weak parent motif; relative to: not given; reading: higher = stronger binding
Parent: SLBP docking peptide (human); ARYKRKLLINDFG
Change	normalised enrichment score
ARYSRKLLINDFG [K4S]	0.185
ARYKRTLLINDFG [K6T]	0.654
ARYKRKPLINDFG [L7P]	0.319
ARYKRKLFINDFG [L8F]	1
ARYKRKLLINDFM [G13M]	0.662
AQYKRKLLINDFG [R2Q]	0.977
ARYKRKLLIFDFG [N10F]	0.578
MRYKRKLLINDFG [A1M]	0.929
CRYKRKLLINDFG [A1C]	0.43
ARYKRKLPINDFG [L8P]	0.474
QRYKRKLLINDFG [A1Q]	-0.06
ARYKRKLVINDFG [L8V]	1.07
ARYKRKLLWNDFG [I9W]	0.849
ARYKRKLLINVFG [D11V]	0.46
ARYKRKLKINDFG [L8K]	-0.214
ARIKRKLLINDFG [Y3I]	0.482

Study 6 — method: RNA Bind-n-Seq; form: RNA; sample: in vitro; tested at: not given; relative to: input RNA pool; reading: higher = stronger binding
Target: RING finger protein unkempt homolog, zinc fingers 1-6, GST-SBP tag (UNK, Homo sapiens, UniProt Q9C0B0, residues 30-357)
Sequence of UniProt Q9C0B0 (30-357, looked up): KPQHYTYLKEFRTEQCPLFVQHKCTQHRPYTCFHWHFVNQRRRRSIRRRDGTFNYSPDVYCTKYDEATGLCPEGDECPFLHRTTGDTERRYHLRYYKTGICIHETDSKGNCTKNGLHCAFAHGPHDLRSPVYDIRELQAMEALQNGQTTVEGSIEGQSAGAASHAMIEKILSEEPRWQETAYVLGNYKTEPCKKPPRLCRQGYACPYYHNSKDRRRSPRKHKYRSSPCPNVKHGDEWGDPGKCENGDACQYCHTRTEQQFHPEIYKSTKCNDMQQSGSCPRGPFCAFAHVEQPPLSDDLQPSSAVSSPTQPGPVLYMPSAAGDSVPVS
Setting: RNA with constant flanks, human and mouse sites, ends assumed
All sequences stand within: GGGAGUUCUACAGUCCGACGAUC … CAACAGAGGAUUGAGCAUCA
Strand	bound/input enrichment
GCUAUCUAUGUCCAAGCACUGAUUUUUCGCCUGGAAGGAAAUAUCCAAGAAUCCCUAGAACUCUUUCAGACAUGUGCUGUUCUCAGCCCACAGUGUGCUGAUAAUCUCAAGCAGGUGGCC	0.193 ratio
CUGUCACACUCCAAGGGCCACCAGAAGCGCAAGGCCCUCAAGACGACAGUCAUCCUCAUCCUAGCUUUCUUUGCCUGCUGGCUGCCAUAUUAUGUGGGGAUCAGCAUCGACUCCUUCAUC	0.212 ratio
CUUAUUGUAGAUGGCAGAGGCAAAGCAACAAUUUCUAAUGAUGGGGCCACAAUUCUGAAACUUCUUGAUGUUGUCCAUCCUGCAGCAAAGACUUUGGUAGACAUUGCCAAAUCCCAAGAU	0.206 ratio
UCAGAACUCAUCUCUACUCGGUUCACAGGCGCCACUGGUAGAGCAUUUCUUUUUAACAAGGUAGUUAACUUGCAGUACAGUGAAGUUCAAGAUCGGGUCAUGCUCACUGGCCGCCACAUG	0.295 ratio
CAUUUGAUGUAUGCGGUGAGGGAGGAAGUGGAAGUUCUGAAGGAGCAGAUCAAAGAACUAAUAGAGAAAAACUCCCAGCUGGAGCAGGAGAACAAUCUGCUGAAGACGCUGGCCAGUCCG	0.31 ratio
CUCUUAAAAGACUAUGAAGAUAAAAUUCGGGAGGAGUAUGAGCAAAUCCUCAAUACCAAACUAGCAGAACAAUAUGAAUCUUUUGUGAAAUUCACACAUGAUCAGAUUAUGCGACGGUAU	0.25 ratio
GCAGGAGCAUCAGUAGACCUAACAAUUUUCUCCCUUCAUUUAGCUGGAGUGUCAUCUAUUUUAGGUGCAAUUAAUUUUAUUACCACUAUUAUCAACAUGAAACCCCCAGCCAUAACACAG	0.985 ratio
CACCACCACCACCACCACCCGUGCAGUUUCACAUGGAAGCUUGUACCUGUGUUACCUCUGUAGUAAGUUGCAUGUGCGAAGUAUAACCAAAGCGAUCAUGUUUAUGUUGACCCUGCCAUA	0.286 ratio
AUGGCUCACAAUCCUAAUAUGACUCAUCUGAAGAUUAAGCAGCCAGUGACAGCCCUUCCUCCUCUUUGGGUGAGAUGUGACGGUUCAGAUCCUGAAGGUACCUGUUGGCUAGGAGCUGAG	0.227 ratio
CACUUUUCUUGGGUUUUCCUGGAUGACAUCUUUGAGGUGAAACUUCAUGAUAACUACGAACUGAUGAAGGAUGAAAGUAAGGAGAGUGCCAAAAGGCUGCAGUUGCUAGAUGCCAAAGUG	0.204 ratio
GGAAGAAAACCAGAUUUUUAGCCUUCUUGCCAAAUCCAGACCUCUGGUUGAUUUUUCUUUGACAGAAGAUGCAAGUUAUUUUCCAAUUUCACAAUUAAAUGUAUUUAACCUGAACAUUAU	1.6 ratio

Study 7 — method: protein-binding microarray; form: hairpin DNA; sample: in vitro; tested at: not given; relative to: not given; reading: higher = stronger binding; all sequences stand within: GAGGCCG … CGGCCTCACACTC
Target: Krueppel-like factor 3, full length (KLF3, Homo sapiens, UniProt P57682, residues 1-345)
Sequence of UniProt P57682 (whole entry, looked up): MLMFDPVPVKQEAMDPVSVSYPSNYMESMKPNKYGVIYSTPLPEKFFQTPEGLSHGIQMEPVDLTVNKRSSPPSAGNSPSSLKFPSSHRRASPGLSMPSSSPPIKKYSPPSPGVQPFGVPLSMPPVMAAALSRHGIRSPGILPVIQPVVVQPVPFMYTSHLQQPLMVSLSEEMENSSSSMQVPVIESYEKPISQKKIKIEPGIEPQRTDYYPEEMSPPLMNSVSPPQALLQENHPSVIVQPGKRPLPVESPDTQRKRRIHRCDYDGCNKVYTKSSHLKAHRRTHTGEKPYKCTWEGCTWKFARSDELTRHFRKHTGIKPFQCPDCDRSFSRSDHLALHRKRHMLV
Setting: whole hairpin DNA, median over replicate spots
Strand	median fluorescence [a.u.]
ACCACGCCCGGCCTCCTGGCCGGGCGTGGT (5mC at 16)	9760
ACCACGCCGAGCCTCCTGGCTCGGCGTGGT	9840
TCCACGCCCAGCCTCCTGGCTGGGCGTGGA	9010
ACGGCGCCCAGCCTCCTGGCTGGGCGCCGT (5mC at 9 35)	8320
ACCACGCCCGGCCTCCTGGCCGGGCGTGGT (5mC at 16 28)	10500
AGCACGCCCAGCCTCCTGGCTGGGCGTGCT (5mC at 36)	9510
ACCACGCCCGGCCTCCTGGCCGGGCGTGGT	9920
ACCGCCGCCAGCCTCCTGGCTGGCGGCGGT (5mC at 13)	8340
ACCACGCCAAGCCTCCTGGCTTGGCGTGGT	8940
ACCAGGCCCAGCCTCCTGGCTGGGCCTGGT (5mC at 33)	7550
ACCGCGCCCAGCCTCCTGGCTGGGCGCGGT (5mC at 12)	8450
ACCGCCCCCAGCCTCCTGGCTGGGGGCGGT (5mC at 13)	8480

Repeated from above (study 3):
Modification	mean fluorescence intensity [a.u.]
2'F-ANA at 2 6 7 9 11 13 14	99
2'F-ANA at 4 7 8 9 11 12 14	123
2'F-ANA at 1 2 3 4 6 9 11 12 14	58.9
2'F-ANA at 2 4 7 8 9 13	234
2'F-ANA at 1 2 4 5 6 7 9 12 13 14	50.6
2'F-ANA at 4 6 7 11 12 14	93.5
2'F-ANA at 2 3 5 8 9 11 12 15	172
2'F-ANA at 1 3 4 5 8 9 13 15	50.8
2'F-ANA at 1 3 5 6 7 11 13 15	54.1
2'F-ANA at 1 2 4 7 9 11 15	97.6
2'F-ANA at 2 3 4 5 7 8 9 11 12 13 14	80.2
2'F-ANA at 1 2 3 5 7 9 14	73.6
2'F-ANA at 2 3 4 6 7 8 9 11 12 13 14 15	212
2'F-ANA at 1 3 9 14 15	98.4
